Assay results pooled from the literature.
A part holds a random share of what one study measured. Positions count from the first letter of the parent shown.

Series 1
Target: Interferon regulatory factor 7, full length, phosphomimetic (IRF7, Homo sapiens, UniProt Q92985, residues 1-503, S471D/S472D/S475D/S476D/S477D/S483D/S484D/S487D)
Technique: protein-binding microarray
Form: double-stranded DNA, one strand shown
Medium: in vitro
Tested at: 2200 nM top
Setting: 60-bp whole probe
Together with: salmon DNA 0.4 mg/ml
Reference: random background probes
Reading: higher = stronger binding
Shared flanks, not repeated: GCCTAGCAC … GTCTTGATTCGCTTGACGCTGCTG
Target sequence (chain): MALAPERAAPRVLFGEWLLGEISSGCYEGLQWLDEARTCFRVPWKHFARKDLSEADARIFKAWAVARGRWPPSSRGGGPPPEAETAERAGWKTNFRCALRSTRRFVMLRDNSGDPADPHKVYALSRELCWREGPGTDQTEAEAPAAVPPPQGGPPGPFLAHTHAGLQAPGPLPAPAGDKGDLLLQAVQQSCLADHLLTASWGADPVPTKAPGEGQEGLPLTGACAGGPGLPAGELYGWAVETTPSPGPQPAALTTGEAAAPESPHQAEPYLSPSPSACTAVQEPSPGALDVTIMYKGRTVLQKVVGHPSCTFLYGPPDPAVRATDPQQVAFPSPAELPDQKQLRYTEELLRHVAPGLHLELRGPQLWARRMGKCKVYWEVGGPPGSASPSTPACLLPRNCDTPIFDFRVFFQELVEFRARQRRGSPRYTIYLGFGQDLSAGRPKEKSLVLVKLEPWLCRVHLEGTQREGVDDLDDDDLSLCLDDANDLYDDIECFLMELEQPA
`AACGGACTGGACTTTCGGGACGTGCTA` — result for “fitted relative affinity”: 1.89 z-score.
Under “fitted relative affinity”, `GACGGTTTCTGTCTCGGGACGTGCTAG` is recorded as 2.73 z-score.
`GACGGTTCCTTTTTCCTGACGTGCTAG` — result for “fitted relative affinity”: 2.48 z-score.
`GACGATATCGGGTATAGAGACGTGCTA` — result for “fitted relative affinity”: -0.161 z-score.
`GACAATATCAGTCTCGAGACGTGCTAG`: “fitted relative affinity” 0.317 z-score.

Series 2
Target: Histone acetyltransferase KAT6A, winged helix 1, GST fusion (KAT6A, Homo sapiens, UniProt Q92794, residues 1-85)
Technique: protein binding microarray
Form: double-stranded DNA, one strand shown
Medium: in vitro
Tested at: not given
Setting: 8-mer, flanks averaged, mean of 2 arrays, mostly near background
Reference: not given
Reading: higher = stronger binding
Construct (chain): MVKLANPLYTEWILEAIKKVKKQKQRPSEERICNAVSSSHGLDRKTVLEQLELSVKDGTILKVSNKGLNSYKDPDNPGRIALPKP
`CATAGAGG` has an E-score of -0.155.
With `AAGAGGCG` the E-score was 0.167.
`GCTGTCCC` gave an E-score of 0.0523.
With `AGCATTGA` the E-score was -0.217.
For `AGTGACTA`, the E-score was -0.0645.
The E-score of `TCTTACCA` is reported as -0.146.
For `TAAACGAA`, the E-score was -0.0547.

Series 3
Target: CCNE1, cyclin fold, Cln2 fusion (human)
Technique: yeast growth competition, sequencing
Medium: yeast
Setting: strong parent motif
Reference: not given
Reading: higher = stronger binding
Starting sequence: BRCA2 docking peptide (human); PSIKRNLLNEFDR; partner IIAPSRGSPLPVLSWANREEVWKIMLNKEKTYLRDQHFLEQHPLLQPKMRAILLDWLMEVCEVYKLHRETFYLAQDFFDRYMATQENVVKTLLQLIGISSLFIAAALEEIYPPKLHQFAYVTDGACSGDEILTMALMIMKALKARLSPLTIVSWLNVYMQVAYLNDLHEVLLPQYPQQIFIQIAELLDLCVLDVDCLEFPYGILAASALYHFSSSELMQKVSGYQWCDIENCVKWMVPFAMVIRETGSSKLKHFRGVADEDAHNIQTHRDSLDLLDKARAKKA
`PSIKRNLLYEFDR [N9Y]` — result for “normalised enrichment score”: 2.85.
For `PSIKANLLNEFDR [R5A]`, “normalised enrichment score” read 0.125.
`PSIKANALNEFDR [R5A L7A]`: “normalised enrichment score” -0.011.
`PSYKRNLLNEFDR [I3Y]` — result for “normalised enrichment score”: 5.39.
Under “normalised enrichment score”, `PSIKRNLLNEQDR [F11Q]` is recorded as 0.278.
`PSCKRNLLNEFDR [I3C]` — result for “normalised enrichment score”: 5.92.

Further values, each from its own experiment
`PhoQ, residues 284 288 289 292 302 303 SLSVQF` gave a fold induction of 9.96 (PhoP, residues 12 14 15 18 19 NQAHL (Escherichia coli, UniProt P23836); Sort-seq, item: YFP reporter; E. coli; PhoQ-PhoP variant library, together with: 10 µM Mg2+; reference: high Mg2+ state, higher = stronger signaling).

A few entries again (series 3):
`PSIKRNLLYEFDR [N9Y]` — result for “normalised enrichment score”: 2.85.
For `PSIKANLLNEFDR [R5A]`, “normalised enrichment score” read 0.125.
`PSIKANALNEFDR [R5A L7A]`: “normalised enrichment score” -0.011.
